Results from different studies.
Parts stem from different laboratories: compare values within a part only. Positions count from the first letter of the parent shown.

Set 1 — technique: aptamer microarray, sandwich; form: DNA with 2'F-ANA; medium: in vitro; tested at: 200 nM; added: Cy3 exosite-II aptamer, 400 nM; reading: higher = stronger binding; sequence: GGTTGGTGTGGTTGG
Target: Prothrombin, mature alpha-thrombin (F2, Homo sapiens, UniProt P00734)
Notes: whole 15-mer aptamer, many near background
`2'F-ANA at 6 7 8 10 11 12 15`: “mean fluorescence intensity” 168 a.u.
`2'F-ANA at 3 5 7 8 9 11 15`: “mean fluorescence intensity” 118 a.u.
Under “mean fluorescence intensity”, `2'F-ANA at 1 2 5 8 10 14` is recorded as 52.2 a.u.
For `2'F-ANA at 1 2 3 6 7 9 11 12 14`, “mean fluorescence intensity” read 68.1 a.u.
Under “mean fluorescence intensity”, `2'F-ANA at 3 8 9 10 12 15` is recorded as 657 a.u.
`2'F-ANA at 2 4 8 10 11 13` — result for “mean fluorescence intensity”: 170 a.u.
For `2'F-ANA at 1 2 3 5 8 10 13`, “mean fluorescence intensity” read 46.2 a.u.
Under “mean fluorescence intensity”, `2'F-ANA at 2 5 7 8 11 13 14 15` is recorded as 56 a.u.
`2'F-ANA at 1 4 5 6 9 13`: “mean fluorescence intensity” 47 a.u.
For `2'F-ANA at 2 5 6 7 9 10 11 12 15`, “mean fluorescence intensity” read 55.1 a.u.
`2'F-ANA at 4 6 8 9 10 12 14 15`: “mean fluorescence intensity” 67.2 a.u.
Under “mean fluorescence intensity”, `2'F-ANA at 2 4 5 6 7 10 12 14` is recorded as 45.4 a.u.
`2'F-ANA at 2 3 4 6 7 10 12` — result for “mean fluorescence intensity”: 339 a.u.
`2'F-ANA at 2 3 6 10 11 14` — result for “mean fluorescence intensity”: 274 a.u.
For `2'F-ANA at 2 3 4 5 8 11 15`, “mean fluorescence intensity” read 76.6 a.u.
`2'F-ANA at 1 2 6 8 10 12` — result for “mean fluorescence intensity”: 66.2 a.u.
For `2'F-ANA at 1 2 4 6 8 9 10 11 14`, “mean fluorescence intensity” read 49.7 a.u.
`2'F-ANA at 1 2 4 5 6 7 8 9 14 15`: “mean fluorescence intensity” 60.4 a.u.
For `2'F-ANA at 1 4 5 6 7 8 14`, “mean fluorescence intensity” read 50.7 a.u.
`2'F-ANA at 1 2 3 6 7 9 10 13 15`: “mean fluorescence intensity” 61.7 a.u.
Under “mean fluorescence intensity”, `2'F-ANA at 1 3 4 5 6 8 10 15` is recorded as 80.1 a.u.
For `2'F-ANA at 1 2 8 9 10 11`, “mean fluorescence intensity” read 50.1 a.u.
Under “mean fluorescence intensity”, `2'F-ANA at 2 3 4 5 8 9 15` is recorded as 92 a.u.
For `2'F-ANA at 1 3 4 5 6 7 12 14 15`, “mean fluorescence intensity” read 63.2 a.u.
Under “mean fluorescence intensity”, `2'F-ANA at 1 5 10 11 12 14 15` is recorded as 47.3 a.u.

Set 2 — technique: RNA Bind-n-Seq; form: RNA; medium: in vitro; tested at: 100 nM; notes: RNA with constant flanks, ends assumed; reference: input RNA pool; reading: higher = stronger binding
Target: RING finger protein unkempt homolog, zinc fingers 1-6, SBP tag (UNK, Homo sapiens, UniProt Q9C0B0, residues 30-357)
Sequence of UniProt Q9C0B0 (30-357, looked up): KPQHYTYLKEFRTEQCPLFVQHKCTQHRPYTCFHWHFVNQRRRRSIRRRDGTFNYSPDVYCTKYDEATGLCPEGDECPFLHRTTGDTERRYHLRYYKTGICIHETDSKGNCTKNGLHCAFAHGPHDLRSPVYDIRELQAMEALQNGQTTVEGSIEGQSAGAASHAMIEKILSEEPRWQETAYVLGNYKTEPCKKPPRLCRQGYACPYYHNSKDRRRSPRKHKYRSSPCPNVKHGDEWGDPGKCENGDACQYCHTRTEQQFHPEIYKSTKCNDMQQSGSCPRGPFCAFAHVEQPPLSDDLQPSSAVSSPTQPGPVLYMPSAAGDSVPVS
The bound/input enrichment of `GGGAGUUCUACAGUCCGACGAUCCAGCUGAUUCACUCAUUGGGAGAGCUGCACAUACCGCUGUUCUUGAUUCGGAAAUAUUUUCCGAGAAAUUCUUUCUGGUUGCUGCCCUCAAAUAUUUCCAACCGUAUAAAAGCAUUGUUACAACAGAGGAUUGAGCAUCA` is reported as 0.643 ratio.
For `GGGAGUUCUACAGUCCGACGAUCUAAAGGUUUUUUUUUUUUAAUUUAAUUUUUCCUUUUGGGGGUAAAGUUUGCUCUACCAAACCGUGAUUGUAACAAAUUGAUCUGUUUUGGAUGUUGCUACCGUGACAUGCAGUUAUAUAUCAACAGAGGAUUGAGCAUCA`, the bound/input enrichment was 0.452 ratio.
For `GGGAGUUCUACAGUCCGACGAUCUGGGUUACUCCUAUUAUUAUCAAGCCGCUGGAAUUGUGAAGGUCGGAGCCGUCCGAUCUUCCGCUUUUAUUCCUUAUUUUUUUGUAUUACUCUCCAUGUGUAUAAAUUAUUGAUCAUGUUCAACAGAGGAUUGAGCAUCA`, the bound/input enrichment was 1.2 ratio.

Set 3 — technique: RNA Bind-n-Seq; form: RNA; medium: in vitro; tested at: 20 nM; notes: 6-mer, flanks averaged, single round; added: 150 mM LiCl; reference: input library; reading: higher = stronger binding
Target: TAR DNA-binding protein 43, full length, His tag (TARDBP, Homo sapiens, UniProt Q13148, residues 1-414)
Under “6-mer enrichment (R)”, `GAGGAC` is recorded as 0.991.
Under “6-mer enrichment (R)”, `AAUAUG` is recorded as 0.992.
`CCACCG`: “6-mer enrichment (R)” 0.944.
For `AGAGUU`, “6-mer enrichment (R)” read 0.943.
`AGUAUC`: “6-mer enrichment (R)” 0.849.
`CUGUCC`: “6-mer enrichment (R)” 0.924.
Under “6-mer enrichment (R)”, `UGCAUA` is recorded as 0.92.
`CUCAUU` — result for “6-mer enrichment (R)”: 0.963.
Under “6-mer enrichment (R)”, `AUUCCG` is recorded as 0.865.
For `AUUGUG`, “6-mer enrichment (R)” read 1.25.
`UGAGAG`: “6-mer enrichment (R)” 1.16.
`GCGACA`: “6-mer enrichment (R)” 0.89.
Under “6-mer enrichment (R)”, `GGAUUG` is recorded as 1.04.
Under “6-mer enrichment (R)”, `GGUUCC` is recorded as 0.928.
`UCAACA` — result for “6-mer enrichment (R)”: 0.804.
`GACCCC` — result for “6-mer enrichment (R)”: 1.07.

Set 4 — technique: DHFR PCA, deep sequencing; medium: yeast; added: (+)-ABA 0.0091 µM; reference: wild-type fitted maximum; reading: higher = stronger binding
Target: ABI1, truncated, D143A, DHFR fusion (Arabidopsis thaliana)
Notes: methotrexate growth selection, single substitutions
Starting sequence: PYL1, truncated, DHFR fusion (Arabidopsis thaliana); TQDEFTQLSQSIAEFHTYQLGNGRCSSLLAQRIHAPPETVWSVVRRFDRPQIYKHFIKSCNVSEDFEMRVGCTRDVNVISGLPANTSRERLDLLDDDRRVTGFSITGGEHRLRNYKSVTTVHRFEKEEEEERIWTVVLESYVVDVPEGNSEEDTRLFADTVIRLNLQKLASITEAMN
For `D144G`, “relative binding score” read 2.34%.
Under “relative binding score”, `F5K` is recorded as 7.2%.
Under “relative binding score”, `R90M` is recorded as -0.993%.
Under “relative binding score”, `G23T` is recorded as -0.196%.
`W41C`: “relative binding score” -2.01%.
For `G102C`, “relative binding score” read -5.92%.
For `G108L`, “relative binding score” read -4.88%.
Under “relative binding score”, `S117R` is recorded as -4.81%.
For `Q10K`, “relative binding score” read 38.9%.
`V145K` — result for “relative binding score”: -3.64%.
`R111A` — result for “relative binding score”: -0.819%.
`T101V` — result for “relative binding score”: 41.3%.
Under “relative binding score”, `R99P` is recorded as -4.07%.
Under “relative binding score”, `N22Q` is recorded as 46%.
`F5G` — result for “relative binding score”: 1.61%.
For `N77P`, “relative binding score” read -7.52%.
For `R49E`, “relative binding score” read 25%.

Set 5 — target: CCNA1, cyclin fold, Cln2 fusion (human); technique: yeast growth competition, sequencing; medium: yeast; notes: weak parent motif; reference: not given; reading: higher = stronger binding
Starting sequence: RBL1 docking peptide (human); GSAKRRLFGEDPP
Under “normalised enrichment score”, `GSAKRRLFGEQPP [D11Q]` is recorded as 0.459.
For `GSAKRRLFMEDPP [G9M]`, “normalised enrichment score” read 0.429.
For `GSAKRRLGGEDPP [F8G]`, “normalised enrichment score” read 0.189.
`GSCKRRLFGEDPP [A3C]`: “normalised enrichment score” 0.835.
`GSHKRRLFGEDPP [A3H]`: “normalised enrichment score” 0.334.
`GHAKRRLFGEDPP [S2H]` — result for “normalised enrichment score”: 0.574.
`GSAMRRLFGEDPP [K4M]`: “normalised enrichment score” 0.256.
Under “normalised enrichment score”, `GSAKRRGFGEDPP [L7G]` is recorded as 0.226.
For `GSAKRRLFCEDPP [G9C]`, “normalised enrichment score” read 0.854.
For `GSAKTRLFGEDPP [R5T]`, “normalised enrichment score” read 0.165.
`GPAKRRLFGEDPP [S2P]`: “normalised enrichment score” 0.413.
Under “normalised enrichment score”, `GSAKRRVFGEDPP [L7V]` is recorded as 0.663.
`GSAKRRLRGEDPP [F8R]` — result for “normalised enrichment score”: 0.195.
`GMAKRRLFGEDPP [S2M]` — result for “normalised enrichment score”: 0.627.
For `GSFKRRLFGEDPP [A3F]`, “normalised enrichment score” read 0.54.
For `GLAKRRLFGEDPP [S2L]`, “normalised enrichment score” read 0.471.
`GSAPRRLFGEDPP [K4P]` — result for “normalised enrichment score”: 0.249.
For `GSAIRRLFGEDPP [K4I]`, “normalised enrichment score” read 0.227.
`GSAKRRLFREDPP [G9R]` — result for “normalised enrichment score”: 0.685.
Under “normalised enrichment score”, `GSAKRKLFGEDPP [R6K]` is recorded as 0.642.

Some of these lines once more (set 1):
For `2'F-ANA at 1 2 3 5 8 10 13`, “mean fluorescence intensity” read 46.2 a.u.
For `2'F-ANA at 2 5 6 7 9 10 11 12 15`, “mean fluorescence intensity” read 55.1 a.u.
`2'F-ANA at 1 4 5 6 9 13`: “mean fluorescence intensity” 47 a.u.
For `2'F-ANA at 1 3 4 5 6 7 12 14 15`, “mean fluorescence intensity” read 63.2 a.u.
`2'F-ANA at 4 6 8 9 10 12 14 15`: “mean fluorescence intensity” 67.2 a.u.
Under “mean fluorescence intensity”, `2'F-ANA at 1 3 4 5 6 8 10 15` is recorded as 80.1 a.u.
`2'F-ANA at 3 5 7 8 9 11 15`: “mean fluorescence intensity” 118 a.u.
For `2'F-ANA at 1 2 4 6 8 9 10 11 14`, “mean fluorescence intensity” read 49.7 a.u.
`2'F-ANA at 2 3 4 6 7 10 12` — result for “mean fluorescence intensity”: 339 a.u.
